Literature values that unrelated publications cite.
Numbers after ± are the reported error.
Sequence of UniProt P42338 (whole entry, looked up): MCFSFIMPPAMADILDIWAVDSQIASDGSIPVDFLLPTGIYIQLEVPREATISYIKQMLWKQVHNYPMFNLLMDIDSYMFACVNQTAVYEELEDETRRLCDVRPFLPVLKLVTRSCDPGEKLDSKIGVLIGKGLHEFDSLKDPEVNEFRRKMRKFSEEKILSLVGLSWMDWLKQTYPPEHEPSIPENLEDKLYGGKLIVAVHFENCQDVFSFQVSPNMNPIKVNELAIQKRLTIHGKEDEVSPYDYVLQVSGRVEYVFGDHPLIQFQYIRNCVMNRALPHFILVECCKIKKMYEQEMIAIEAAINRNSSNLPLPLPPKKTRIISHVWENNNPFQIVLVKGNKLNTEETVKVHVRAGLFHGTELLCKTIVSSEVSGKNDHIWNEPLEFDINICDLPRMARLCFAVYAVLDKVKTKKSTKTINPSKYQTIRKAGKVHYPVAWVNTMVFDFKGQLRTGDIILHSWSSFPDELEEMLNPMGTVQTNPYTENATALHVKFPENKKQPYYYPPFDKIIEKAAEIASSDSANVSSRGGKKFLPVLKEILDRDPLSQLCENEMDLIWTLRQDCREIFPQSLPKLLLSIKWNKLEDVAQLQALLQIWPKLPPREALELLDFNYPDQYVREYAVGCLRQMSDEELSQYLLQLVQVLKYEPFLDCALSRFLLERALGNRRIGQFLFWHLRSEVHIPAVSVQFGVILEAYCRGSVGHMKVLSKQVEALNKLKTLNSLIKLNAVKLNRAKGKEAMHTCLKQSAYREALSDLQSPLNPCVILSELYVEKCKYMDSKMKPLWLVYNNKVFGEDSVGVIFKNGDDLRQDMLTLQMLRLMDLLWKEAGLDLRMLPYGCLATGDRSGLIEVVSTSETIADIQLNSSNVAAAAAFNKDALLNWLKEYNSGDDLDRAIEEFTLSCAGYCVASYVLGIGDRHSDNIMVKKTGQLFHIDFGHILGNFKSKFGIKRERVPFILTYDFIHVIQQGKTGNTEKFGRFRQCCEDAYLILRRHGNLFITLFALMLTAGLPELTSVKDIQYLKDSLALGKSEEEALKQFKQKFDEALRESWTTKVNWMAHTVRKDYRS
Sequence of UniProt Q8TEK3 (whole entry, looked up): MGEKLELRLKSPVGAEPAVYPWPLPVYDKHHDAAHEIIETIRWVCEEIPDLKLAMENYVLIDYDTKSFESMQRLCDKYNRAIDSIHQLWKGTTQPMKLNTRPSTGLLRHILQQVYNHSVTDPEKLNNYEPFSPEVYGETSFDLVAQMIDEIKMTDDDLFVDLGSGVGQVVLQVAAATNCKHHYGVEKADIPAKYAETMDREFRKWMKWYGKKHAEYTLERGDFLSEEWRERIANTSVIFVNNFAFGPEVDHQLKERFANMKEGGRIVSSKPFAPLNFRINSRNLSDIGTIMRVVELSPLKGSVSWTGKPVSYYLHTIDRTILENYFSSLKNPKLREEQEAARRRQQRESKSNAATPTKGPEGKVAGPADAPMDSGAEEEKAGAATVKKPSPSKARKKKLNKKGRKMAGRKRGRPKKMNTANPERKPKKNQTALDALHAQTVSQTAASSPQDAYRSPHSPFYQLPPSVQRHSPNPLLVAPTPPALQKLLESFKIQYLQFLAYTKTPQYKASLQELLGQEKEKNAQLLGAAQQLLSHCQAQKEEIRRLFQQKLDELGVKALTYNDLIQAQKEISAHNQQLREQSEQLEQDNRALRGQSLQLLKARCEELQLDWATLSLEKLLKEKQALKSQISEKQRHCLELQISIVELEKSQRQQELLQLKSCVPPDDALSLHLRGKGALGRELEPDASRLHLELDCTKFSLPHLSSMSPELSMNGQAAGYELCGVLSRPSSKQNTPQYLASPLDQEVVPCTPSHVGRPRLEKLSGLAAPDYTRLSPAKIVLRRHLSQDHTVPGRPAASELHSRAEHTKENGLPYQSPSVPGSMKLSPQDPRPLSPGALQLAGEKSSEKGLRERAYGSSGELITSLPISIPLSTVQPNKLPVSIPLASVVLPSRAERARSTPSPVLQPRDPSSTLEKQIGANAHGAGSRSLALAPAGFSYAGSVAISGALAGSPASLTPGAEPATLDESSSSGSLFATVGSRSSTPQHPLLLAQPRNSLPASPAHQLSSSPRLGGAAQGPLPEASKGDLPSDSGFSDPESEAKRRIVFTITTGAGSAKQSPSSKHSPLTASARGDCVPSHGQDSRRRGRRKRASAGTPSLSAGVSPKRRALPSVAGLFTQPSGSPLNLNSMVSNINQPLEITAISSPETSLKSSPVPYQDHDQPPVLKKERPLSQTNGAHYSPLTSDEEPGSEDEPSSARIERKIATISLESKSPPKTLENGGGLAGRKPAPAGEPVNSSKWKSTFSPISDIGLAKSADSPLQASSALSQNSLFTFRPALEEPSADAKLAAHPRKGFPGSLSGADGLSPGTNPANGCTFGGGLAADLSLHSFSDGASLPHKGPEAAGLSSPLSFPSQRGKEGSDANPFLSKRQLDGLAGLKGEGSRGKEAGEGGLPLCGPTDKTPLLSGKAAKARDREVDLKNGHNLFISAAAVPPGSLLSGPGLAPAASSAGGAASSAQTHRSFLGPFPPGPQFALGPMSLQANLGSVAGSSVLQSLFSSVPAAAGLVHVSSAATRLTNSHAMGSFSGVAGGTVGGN
Sequence of UniProt P06536 (whole entry, looked up): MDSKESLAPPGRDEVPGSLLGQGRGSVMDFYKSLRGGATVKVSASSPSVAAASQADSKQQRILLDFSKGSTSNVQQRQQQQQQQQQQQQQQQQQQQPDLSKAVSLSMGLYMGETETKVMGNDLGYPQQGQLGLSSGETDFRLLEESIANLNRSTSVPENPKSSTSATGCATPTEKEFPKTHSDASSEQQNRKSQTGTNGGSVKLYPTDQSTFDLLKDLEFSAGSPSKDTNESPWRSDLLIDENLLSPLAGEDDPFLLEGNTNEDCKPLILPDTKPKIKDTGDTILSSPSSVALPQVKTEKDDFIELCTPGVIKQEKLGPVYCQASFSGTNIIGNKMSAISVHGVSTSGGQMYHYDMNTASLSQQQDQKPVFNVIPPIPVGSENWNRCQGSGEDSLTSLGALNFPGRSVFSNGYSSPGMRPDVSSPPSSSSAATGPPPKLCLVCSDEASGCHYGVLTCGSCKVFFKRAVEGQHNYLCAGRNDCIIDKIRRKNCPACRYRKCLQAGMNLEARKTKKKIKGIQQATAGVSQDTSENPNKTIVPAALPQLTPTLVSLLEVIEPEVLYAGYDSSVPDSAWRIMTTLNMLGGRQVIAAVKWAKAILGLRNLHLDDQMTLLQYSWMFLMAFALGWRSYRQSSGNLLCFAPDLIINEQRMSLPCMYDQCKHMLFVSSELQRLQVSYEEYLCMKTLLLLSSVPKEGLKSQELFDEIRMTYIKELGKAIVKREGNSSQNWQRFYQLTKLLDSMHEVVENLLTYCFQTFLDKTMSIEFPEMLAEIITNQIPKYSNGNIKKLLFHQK
Sequence of UniProt P02769 (whole entry, looked up): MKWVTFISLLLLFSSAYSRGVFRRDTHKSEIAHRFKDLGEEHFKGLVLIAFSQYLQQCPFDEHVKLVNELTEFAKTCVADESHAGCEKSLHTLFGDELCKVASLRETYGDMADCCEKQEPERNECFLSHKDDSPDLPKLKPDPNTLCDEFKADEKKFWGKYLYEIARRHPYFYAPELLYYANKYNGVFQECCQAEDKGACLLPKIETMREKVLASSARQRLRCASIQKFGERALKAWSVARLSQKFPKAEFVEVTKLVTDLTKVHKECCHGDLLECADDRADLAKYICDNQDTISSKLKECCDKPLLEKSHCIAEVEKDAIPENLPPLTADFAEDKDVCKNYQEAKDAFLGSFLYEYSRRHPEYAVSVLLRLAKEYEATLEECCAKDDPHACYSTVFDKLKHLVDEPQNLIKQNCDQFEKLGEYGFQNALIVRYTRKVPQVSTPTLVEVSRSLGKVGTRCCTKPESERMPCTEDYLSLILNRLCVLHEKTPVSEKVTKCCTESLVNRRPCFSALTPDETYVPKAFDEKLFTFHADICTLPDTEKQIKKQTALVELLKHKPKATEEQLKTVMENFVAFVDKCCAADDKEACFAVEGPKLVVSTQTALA
Sequence of UniProt Q9HBH9 (whole entry, looked up): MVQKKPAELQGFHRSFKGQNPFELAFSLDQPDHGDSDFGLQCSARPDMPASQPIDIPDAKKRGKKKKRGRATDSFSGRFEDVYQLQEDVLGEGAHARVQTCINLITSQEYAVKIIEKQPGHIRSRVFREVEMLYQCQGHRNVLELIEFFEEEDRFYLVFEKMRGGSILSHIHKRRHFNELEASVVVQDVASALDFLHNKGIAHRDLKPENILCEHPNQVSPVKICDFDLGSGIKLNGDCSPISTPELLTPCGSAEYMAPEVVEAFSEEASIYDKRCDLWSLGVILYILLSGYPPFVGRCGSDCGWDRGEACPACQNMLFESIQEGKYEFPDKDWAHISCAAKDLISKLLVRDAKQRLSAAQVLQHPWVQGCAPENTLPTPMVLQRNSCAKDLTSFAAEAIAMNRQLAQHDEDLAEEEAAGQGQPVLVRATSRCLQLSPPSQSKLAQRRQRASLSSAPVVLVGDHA

Compound = O=c1c2ccccc2[se]n1-c1ccccc1; target or system = dengue virus NS3 helicase; assay = inhibitor; conditions = concentration not given; endpoint = helicase inhibition; value = no inhibition
Compound = CCC(=O)O[C@]1(C(=O)SCF)[C@H](C)C[C@H]2[C@@H]3C[C@H](F)C4=CC(=O)C=C[C@]4(C)[C@@]3(F)[C@@H](O)C[C@@]21C; target or system = Nr3c1 (Rattus norvegicus, UniProt P06536); test system = rat, spleen; conditions = intravenous, 90 nmol/kg, 4.005 (unit not given); endpoint = receptor occupancy; value = 45.7%
Compound = CC1(C)S[C@@H]2[C@H](NC(=O)[C@H](N)c3ccccc3)C(=O)N2[C@H]1C(=O)O; target or system = Escherichia coli; test system = clinical isolate RKI-No_75/15; endpoint = MIC; value = > 16 µg/mL
Compound = O=C(O)C1=CCCN(CCON=C(c2ccccc2)c2ccccc2)C1; target or system = Slc6a1 (Rattus norvegicus, UniProt P23978); conditions = historical reference value; endpoint = Hill coefficient; value = 1.1
Compound = CC(C)(O/N=C(\C(=O)N[C@@H]1C(=O)N2C(C(=O)[O-])=C(C[N+]3(CCNC(=O)c4ccc(O)c(O)c4Cl)CCCC3)CS[C@H]12)c1csc(N)n1)C(=O)O; target or system = NDM-9; assay = hydrolysis by enzyme, substrate; endpoint = Km; value = 53 µM
Compound = O=C(O)CN(CC(=O)O)[C@H]1CCCC[C@@H]1N(CC(=O)O)Cc1ccccn1; target or system = Albumin (ALB, Bos taurus, UniProt P02769); conditions = added: 0.67 mM albumin; endpoint = r1 relaxivity; value = 3.8 mM⁻¹ s⁻¹
Compound = CCN(c1cc(-c2ccc(CN3CCOCC3)cc2)cc(C(=O)NCc2c(C)cc(C)[nH]c2=O)c1C)C1CCOCC1; target or system = DOT1L (Homo sapiens, UniProt Q8TEK3); assay = enzyme activity, inhibitor; conditions = 1 µM; endpoint = inhibition; value = 2 ± 8%
Compound = O=C(Nc1nc2ccccc2[nH]1)c1ccccc1; target or system = RAR-related orphan receptor gamma; conditions = PubChem AID 2551; endpoint = activity; value = 6.3 µM
Compound = Cc1cn([C@@H]2O[C@H](CO)[C@@H](O)[C@H]2O)c(=O)nc1N; target or system = cytidine deaminase (human); assay = substrate; conditions = concentration not given; endpoint = Km; value = 4 µM
Compound = C[N+]1(C)CCC(OC(=O)C(c2ccccc2)c2ccccc2)CC1.[I-]; target or system = CHRM2 (Homo sapiens, UniProt P08172); assay = binding; endpoint = Hill coefficient; value = 1
Compound = Cc1cc(NC(=O)c2cccc(NC(=O)/C=C/CN(C)C)c2)ccc1Nc1nccc(-c2cccnc2)n1; target or system = MKNK2 (Homo sapiens, UniProt Q9HBH9); assay = enzyme activity, inhibitor; conditions = 1 µM; how to read = relative to: vehicle; endpoint = remaining activity; value = 7%
Compound = CNC(C)C1CCC(N)C(OC2C(N)CC(N)C(OC3OCC(C)(O)C(NC)C3O)C2O)O1 (stereo not drawn); target or system = Escherichia coli; test system = clinical isolate RKI-No_75/15; endpoint = MIC; value = > 8 µg/mL
Compound = Nc1cc(C(F)(F)F)c(-c2nc(N3CCOCC3)nc(N3CCOCC3)n2)cn1; target or system = PLK2 (Homo sapiens, UniProt Q9NYY3); assay = enzyme activity; conditions = 10 µM; how to read = relative to: untreated; endpoint = remaining activity; value = 65%
Compound = CC/C=C(\C)C=O; target or system = 12-oxophytodienoate reductase OPR3 (isoform 3); assay = ene-reductase biotransformation, substrate; endpoint = conversion; value = 70%
Compound = C=CC(=O)N1CCC(C(=O)NCC(=O)N2CCN(c3nc(-c4cnc(N)nc4C(F)F)nc(N4CCOCC4)n3)CC2)CC1; target or system = PIK3CB (Homo sapiens, UniProt P42338); assay = kinase activity; conditions = 1 µM; endpoint = remaining activity; value = 0.05%

Repeated from above:
Compound = O=C(O)C1=CCCN(CCON=C(c2ccccc2)c2ccccc2)C1; target or system = Slc6a1 (Rattus norvegicus, UniProt P23978); conditions = historical reference value; endpoint = Hill coefficient; value = 1.1
Compound = CC(C)(O/N=C(\C(=O)N[C@@H]1C(=O)N2C(C(=O)[O-])=C(C[N+]3(CCNC(=O)c4ccc(O)c(O)c4Cl)CCCC3)CS[C@H]12)c1csc(N)n1)C(=O)O; target or system = NDM-9; assay = hydrolysis by enzyme, substrate; endpoint = Km; value = 53 µM
